Assay results pooled from the literature.
Compare with care: the assays were run in different laboratories. Values joined by “and” are separate records of one study, mostly repeats; a detail may differ. ± gives the spread as reported.
WD repeat-containing protein 91 WD40 domain, residues 392–747: WD repeat-containing protein 91, WD40 domain, residues 392–747 (Homo sapiens, UniProt A4D1P6)
Sequence of UniProt A4D1P6 (whole entry, looked up): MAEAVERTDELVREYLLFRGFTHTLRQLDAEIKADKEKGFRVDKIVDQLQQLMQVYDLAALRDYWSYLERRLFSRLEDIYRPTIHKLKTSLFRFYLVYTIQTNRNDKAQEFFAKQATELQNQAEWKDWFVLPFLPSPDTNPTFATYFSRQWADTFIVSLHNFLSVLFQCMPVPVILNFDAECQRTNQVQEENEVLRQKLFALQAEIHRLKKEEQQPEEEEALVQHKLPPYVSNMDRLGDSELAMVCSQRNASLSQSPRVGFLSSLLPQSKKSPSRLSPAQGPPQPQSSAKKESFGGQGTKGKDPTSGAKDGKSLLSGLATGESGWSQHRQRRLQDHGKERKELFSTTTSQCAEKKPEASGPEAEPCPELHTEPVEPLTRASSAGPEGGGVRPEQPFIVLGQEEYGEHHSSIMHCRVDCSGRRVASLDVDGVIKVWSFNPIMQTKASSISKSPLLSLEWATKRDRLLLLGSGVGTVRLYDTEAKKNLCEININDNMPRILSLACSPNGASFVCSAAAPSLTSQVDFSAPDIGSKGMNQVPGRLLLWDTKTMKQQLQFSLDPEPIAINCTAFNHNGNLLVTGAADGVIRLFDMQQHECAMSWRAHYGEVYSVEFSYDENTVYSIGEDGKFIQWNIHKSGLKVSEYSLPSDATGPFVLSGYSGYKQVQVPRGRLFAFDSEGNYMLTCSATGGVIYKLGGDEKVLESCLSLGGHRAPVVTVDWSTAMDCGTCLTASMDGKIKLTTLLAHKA
Genome polyprotein NS3 helicase domain: Genome polyprotein, NS3 helicase domain (Hepatitis C virus genotype 1b, UniProt Q9WMX2)
NAA80: N-alpha-acetyltransferase 80 (NAA80, Homo sapiens, UniProt Q93015)
Sequence of UniProt Q93015 (whole entry, looked up): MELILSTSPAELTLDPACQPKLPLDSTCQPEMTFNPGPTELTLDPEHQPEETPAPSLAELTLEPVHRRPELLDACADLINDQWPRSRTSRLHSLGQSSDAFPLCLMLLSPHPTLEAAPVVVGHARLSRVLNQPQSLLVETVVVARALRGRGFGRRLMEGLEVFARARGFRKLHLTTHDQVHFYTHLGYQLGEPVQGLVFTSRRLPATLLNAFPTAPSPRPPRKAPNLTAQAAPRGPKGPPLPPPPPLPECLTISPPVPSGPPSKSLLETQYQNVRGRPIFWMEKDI
T1: RNA aptamer; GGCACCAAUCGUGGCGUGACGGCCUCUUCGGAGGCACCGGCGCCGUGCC
Sequence of UniProt O60318 (whole entry, looked up): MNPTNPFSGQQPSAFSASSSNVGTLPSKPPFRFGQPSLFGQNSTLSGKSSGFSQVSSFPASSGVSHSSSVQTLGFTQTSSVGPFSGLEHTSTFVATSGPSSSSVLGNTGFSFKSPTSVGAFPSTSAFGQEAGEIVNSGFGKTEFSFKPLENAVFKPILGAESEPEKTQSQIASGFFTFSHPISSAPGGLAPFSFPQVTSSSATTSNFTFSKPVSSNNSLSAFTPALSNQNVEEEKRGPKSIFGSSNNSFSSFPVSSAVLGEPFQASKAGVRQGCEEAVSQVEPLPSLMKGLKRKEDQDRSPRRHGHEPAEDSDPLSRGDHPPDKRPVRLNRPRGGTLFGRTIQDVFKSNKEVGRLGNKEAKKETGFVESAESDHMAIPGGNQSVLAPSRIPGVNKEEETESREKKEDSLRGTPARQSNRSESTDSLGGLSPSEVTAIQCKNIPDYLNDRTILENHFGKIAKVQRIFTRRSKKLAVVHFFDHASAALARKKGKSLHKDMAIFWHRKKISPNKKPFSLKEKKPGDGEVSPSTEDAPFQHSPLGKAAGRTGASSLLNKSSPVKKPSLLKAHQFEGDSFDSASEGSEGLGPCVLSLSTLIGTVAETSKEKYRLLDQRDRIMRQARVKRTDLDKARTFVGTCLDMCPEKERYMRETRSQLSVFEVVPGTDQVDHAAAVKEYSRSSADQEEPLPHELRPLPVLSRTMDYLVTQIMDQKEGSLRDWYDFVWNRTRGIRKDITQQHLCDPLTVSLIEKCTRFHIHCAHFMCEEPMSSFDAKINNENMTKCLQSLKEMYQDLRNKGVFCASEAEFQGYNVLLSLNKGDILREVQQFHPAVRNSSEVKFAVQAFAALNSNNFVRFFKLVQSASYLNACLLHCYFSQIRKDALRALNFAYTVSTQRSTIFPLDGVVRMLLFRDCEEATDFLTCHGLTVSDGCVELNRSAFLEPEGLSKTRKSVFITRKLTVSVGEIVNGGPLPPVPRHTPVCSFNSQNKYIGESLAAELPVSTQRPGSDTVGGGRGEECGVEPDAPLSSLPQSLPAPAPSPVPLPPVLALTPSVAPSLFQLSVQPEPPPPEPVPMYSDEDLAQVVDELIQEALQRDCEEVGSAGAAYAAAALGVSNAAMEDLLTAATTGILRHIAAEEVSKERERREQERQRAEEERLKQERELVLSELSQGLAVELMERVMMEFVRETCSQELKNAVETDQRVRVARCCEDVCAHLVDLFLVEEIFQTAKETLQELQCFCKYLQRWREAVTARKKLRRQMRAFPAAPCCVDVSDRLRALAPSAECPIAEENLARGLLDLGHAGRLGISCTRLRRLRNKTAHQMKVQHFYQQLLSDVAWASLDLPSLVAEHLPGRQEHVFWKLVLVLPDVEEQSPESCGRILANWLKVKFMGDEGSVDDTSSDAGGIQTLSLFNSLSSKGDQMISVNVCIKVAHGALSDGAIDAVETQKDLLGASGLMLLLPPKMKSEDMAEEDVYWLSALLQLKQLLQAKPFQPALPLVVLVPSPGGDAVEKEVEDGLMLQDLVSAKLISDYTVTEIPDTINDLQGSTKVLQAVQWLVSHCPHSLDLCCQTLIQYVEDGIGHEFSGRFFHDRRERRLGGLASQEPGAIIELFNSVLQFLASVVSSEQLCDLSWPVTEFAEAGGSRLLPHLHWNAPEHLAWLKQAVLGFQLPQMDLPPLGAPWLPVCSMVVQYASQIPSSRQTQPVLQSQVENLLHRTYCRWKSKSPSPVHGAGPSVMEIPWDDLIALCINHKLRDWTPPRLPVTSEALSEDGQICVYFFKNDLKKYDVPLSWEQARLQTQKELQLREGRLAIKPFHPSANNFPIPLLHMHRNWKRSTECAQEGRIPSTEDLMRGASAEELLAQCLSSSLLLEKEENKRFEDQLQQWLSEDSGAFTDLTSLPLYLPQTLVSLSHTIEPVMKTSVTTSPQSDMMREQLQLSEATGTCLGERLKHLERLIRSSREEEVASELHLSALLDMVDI
Sequence of UniProt Q16774 (whole entry, unmodified, looked up): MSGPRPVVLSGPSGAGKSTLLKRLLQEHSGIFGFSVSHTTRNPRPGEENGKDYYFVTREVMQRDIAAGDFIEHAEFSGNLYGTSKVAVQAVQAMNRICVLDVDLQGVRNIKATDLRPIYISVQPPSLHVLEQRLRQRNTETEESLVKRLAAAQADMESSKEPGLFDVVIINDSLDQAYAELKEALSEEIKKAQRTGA
Sequence of UniProt P51575 (whole entry, unmodified, looked up): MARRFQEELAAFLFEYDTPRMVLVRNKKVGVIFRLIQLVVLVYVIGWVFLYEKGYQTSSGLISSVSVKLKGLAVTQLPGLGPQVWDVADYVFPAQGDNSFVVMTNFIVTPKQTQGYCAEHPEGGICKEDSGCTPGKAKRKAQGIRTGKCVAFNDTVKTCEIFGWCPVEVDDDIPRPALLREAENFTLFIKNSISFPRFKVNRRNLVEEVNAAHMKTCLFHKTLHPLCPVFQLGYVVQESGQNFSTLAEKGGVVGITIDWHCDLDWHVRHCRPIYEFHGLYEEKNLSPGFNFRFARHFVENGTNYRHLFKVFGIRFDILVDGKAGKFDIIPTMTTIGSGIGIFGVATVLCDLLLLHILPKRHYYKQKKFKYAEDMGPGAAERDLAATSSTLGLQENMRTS
Sequence of UniProt Q99619 (whole entry, looked up): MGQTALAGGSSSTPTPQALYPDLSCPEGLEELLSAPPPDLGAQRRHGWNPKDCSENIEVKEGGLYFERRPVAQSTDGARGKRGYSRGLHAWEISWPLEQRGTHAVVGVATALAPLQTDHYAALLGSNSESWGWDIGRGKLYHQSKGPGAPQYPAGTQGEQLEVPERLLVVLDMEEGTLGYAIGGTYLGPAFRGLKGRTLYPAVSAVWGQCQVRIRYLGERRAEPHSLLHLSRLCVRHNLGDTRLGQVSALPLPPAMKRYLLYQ
Sequence of UniProt P02763 (whole entry, looked up): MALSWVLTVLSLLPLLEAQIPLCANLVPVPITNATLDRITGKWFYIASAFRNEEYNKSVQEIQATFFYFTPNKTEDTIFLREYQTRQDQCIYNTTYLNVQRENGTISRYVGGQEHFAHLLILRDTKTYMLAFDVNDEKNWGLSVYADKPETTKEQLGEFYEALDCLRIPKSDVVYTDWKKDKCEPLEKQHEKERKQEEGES
Sequence of UniProt Q96JM7 (whole entry, looked up): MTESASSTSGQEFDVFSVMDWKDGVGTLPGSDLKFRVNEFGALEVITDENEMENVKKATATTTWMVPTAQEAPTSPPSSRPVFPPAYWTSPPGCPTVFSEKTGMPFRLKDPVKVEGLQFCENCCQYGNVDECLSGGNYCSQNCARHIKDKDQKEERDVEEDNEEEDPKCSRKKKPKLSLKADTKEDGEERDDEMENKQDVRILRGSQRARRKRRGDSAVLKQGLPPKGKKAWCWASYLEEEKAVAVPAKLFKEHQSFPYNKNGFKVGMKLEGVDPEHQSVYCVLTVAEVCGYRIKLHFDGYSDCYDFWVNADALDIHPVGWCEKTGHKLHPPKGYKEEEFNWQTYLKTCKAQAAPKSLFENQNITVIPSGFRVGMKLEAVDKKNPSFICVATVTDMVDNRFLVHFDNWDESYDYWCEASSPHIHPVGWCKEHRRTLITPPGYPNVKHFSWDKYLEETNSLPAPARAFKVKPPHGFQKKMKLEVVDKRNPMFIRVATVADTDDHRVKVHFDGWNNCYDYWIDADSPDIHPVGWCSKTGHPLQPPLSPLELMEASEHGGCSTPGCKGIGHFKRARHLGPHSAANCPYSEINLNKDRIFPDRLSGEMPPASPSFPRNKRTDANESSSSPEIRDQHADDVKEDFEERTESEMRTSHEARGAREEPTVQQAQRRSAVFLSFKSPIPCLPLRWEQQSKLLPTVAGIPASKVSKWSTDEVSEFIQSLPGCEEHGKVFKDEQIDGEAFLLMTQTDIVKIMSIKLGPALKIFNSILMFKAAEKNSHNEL
Sequence of UniProt P00441 (whole entry, unmodified, looked up): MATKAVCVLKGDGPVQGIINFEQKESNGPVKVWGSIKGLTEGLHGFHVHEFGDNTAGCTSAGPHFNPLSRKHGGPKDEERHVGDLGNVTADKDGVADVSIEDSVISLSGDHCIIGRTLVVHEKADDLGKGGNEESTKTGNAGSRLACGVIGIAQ

Compound	target	test	test system	setting	how to read	quantity	result
Nc1nc2c(ncn2[C@@H]2O[C@H](COP(=O)(O)O)[C@@H](O)[C@H]2O)c(=O)[nH]1	GUK1 (Homo sapiens, UniProt Q16774, T83A)	enzyme activity, NADH-coupled	–	1000 µM	–	reaction rate	28.4 s⁻¹ and 28.8 s⁻¹ and 27.7 s⁻¹
O=C(Nc1ccc(F)cc1)Nc1cccc2c1CCN(C(=O)c1cc3cccn3cn1)C2	WD repeat-containing protein 91 WD40 domain, residues 392–747	SPR	–	45 µM	–	binding	-44% and -13%
CN(CCO)c1ccc(/C=C(\C#N)c2ccc(C#N)cc2)cc1	T1, RNA aptamer	fluorescence titration, Hill fit	–	apparent	–	Kd	122 nM
O=C(c1ccc(C(=O)N2CCC(N3CCCC3)CC2)c(Nc2ccccc2)c1)N1CCC(N2CCCC2)CC1	Lethal(3)malignant brain tumor-like protein 3 (Homo sapiens, UniProt Q96JM7)	FRAP	human cells	0.1 µM	–	diffusion coefficient	0.0507 µm2/s
Nc1ncnc2c1ncn2[C@@H]1O[C@H](COP(=O)(O)CP(=O)(O)OP(=O)(O)O)[C@@H](O)[C@H]1O	P2X purinoceptor 1 (P2RX1, Homo sapiens, UniProt P51575, K136A)	saturation binding	HEK293	52 nM	–	specific binding	2180 CCPM and 2160 CCPM
CC(C)=CCc1cc(-c2coc3cc(O)ccc3c2=O)ccc1O	Estrogen receptor (ESR1, Homo sapiens, UniProt P03372)	array formation	PRL-HeLa	–	baseline: EC50 ERβ over EC50 ERα	selectivity ratio	97.5
CC(=O)N[C@@H](CS)C(=O)O	Genome polyprotein NS3 helicase domain	DNA binding, inhibitor	hepatitis C virus	100 µM, together with: Cy5-dT15 DNA	–	inhibition	0%
O=O	Hypoxia-inducible factor 1-alpha inhibitor (HIF1AN, Homo sapiens, UniProt Q9NWT6)	substrate, MALDI-TOF MS	–	pH 7.00, 37.0 °C, together with: CTAD 80 µM, αKG 100 µM	–	Km	221 ± 33 µM
O=C(O)c1cc(O)cc(C(=O)O)n1	Genome polyprotein NS3 helicase domain	DNA binding, inhibitor	hepatitis C virus	100 µM, together with: Cy5-dT15 DNA	–	inhibition	0%
N[C@H](COP(=O)(O)O)Cc1c[nH]cn1	Delta	substrate, coupled phosphate release	–	–	–	Km	52 ± 5 µM
CCS(=O)(=O)N1CC(CC#N)(n2cc(-c3ncnc4[nH]ccc34)cn2)C1	Alpha-1-acid glycoprotein 1 (ORM1, Homo sapiens, UniProt P02763)	fluorescence quenching	–	303 K	–	bimolecular quenching constant	4.75e+12 ± 2.6e+11 M⁻¹ s⁻¹
NC(=O)c1nc[nH]c1N	NAA80	substrate, DTNB	–	2 mM, 30 min, 37 °C, together with: acetyl-CoA 500 µM	–	product formation	-0.88 µM
Cc1ccc(C[C@H](NC(=O)OC(C)(C)C)C(=O)NC/C=C/S(=O)(=O)c2ccccc2)cc1	Rhodesain (rhodesain, Trypanosoma brucei rhodesiense, UniProt Q95PM0)	inhibitor	–	pH 5.5, 37 °C, together with: Z-Phe-Arg-AMC	–	kinact/Ki	139000 M⁻¹ s⁻¹
O=C(N[C@@H]1CCc2cc(Cl)ccc21)c1cccc(-c2cnco2)c1	WD repeat-containing protein 91 WD40 domain, residues 392–747	SPR	–	45 µM	–	binding	-26% and -2%
CC[C@H](C)[C@H](NC(=O)[C@H](CCC(=O)O)NC(=O)[C@H](CCC(=O)O)NC(=O)[C@@H]1CCCN1C(=O)[C@H](CC(=O)O)NC(=O)[C@H](C)NC(=O)[C@H](CCC(N)=O)NC(=O)[C@@H](NC(=O)[C@H](C)NC(=O)[C@@H](NC(=O)[C@H](CO)NC(=O)[C@@H](NC(=O)[C@H](CCCCN)NC(=O)[C@@H](N)Cc1ccc(O)cc1)[C@@H](C)O)C(C)C)[C@@H](C)O)C(=O)N[C@H](C(=O)N[C@H](C(=O)N[C@@H](CC(C)C)C(=O)N[C@@H](CC(=O)O)C(=O)N[C@@H](CC(=O)O)C(=O)N[C@@H](CC(=O)O)C(=O)N[C@@H](CC(=O)O)C(=O)O)C(C)C)[C@@H](C)CC	Small ubiquitin-related modifier 2 (Homo sapiens, UniProt P61956, C48A)	binding, ITC	–	pH 7.4, 298.15 K	–	ΔG	-8.16 ± 0.06 kcal/mol
CC[C@H](C)[C@H](NC(=O)[C@H](CCCCN)NC(=O)CNC(=O)[C@@H](NC(=O)[C@@H](NC(=O)[C@H](CCSC)NC(=O)[C@H](Cc1c[nH]cn1)NC(=O)CN)[C@@H](C)O)C(C)C)C(=O)N[C@@H](Cc1ccc(O)cc1)C(=O)N[C@@H](C)C(=O)N[C@@H](C)C(=O)N[C@@H](C)C(=O)N[C@@H](CCSC)C(=O)N[C@H](C(=O)N[C@@H](CCSC)C(=O)N[C@@H](CCC(=O)O)C(=O)N[C@@H](Cc1ccc(O)cc1)C(=O)N[C@@H](Cc1ccc(O)cc1)C(=O)N[C@@H](CCCNC(=N)N)C(=O)N[C@@H](CCC(N)=O)C(=O)N[C@@H](CO)C(=O)N[C@@H](CCCCN)C(=O)N[C@@H](C)C(=O)N[C@@H](CCCCN)C(=O)N[C@@H](CCCCN)C(=O)N[C@@H](CC(C)C)C(=O)N[C@@H](CCC(N)=O)C(=O)N[C@@H](C)C(=O)N[C@@H](CCSC)C(=O)N[C@@H](CCCNC(=N)N)C(=O)O)[C@@H](C)CC	Calmodulin-1, Ca2+-bound C-lobe (CALM1, Homo sapiens, UniProt P0DP23)	binding, isothermal titration calorimetry	–	pH 7.4, 15 °C, C-lobe, CaV2.1 IQ domain, together with: Ca2+	–	ΔH	-3.84 ± 0.02 kcal/mol

Compound	target	test	test system	setting	how to read	quantity	result
CCOC(=O)[C@]12CC1/C(=N\O)c1ccccc1O2 (mixture of isomers)	Genome polyprotein NS3 helicase domain	DNA binding, inhibitor	hepatitis C virus	100 µM, together with: Cy5-dT15 DNA	–	inhibition	0%
CC1CCCN(C(=O)c2cc3ncccn3n2)C1 (stereo not shown)	SPRY domain-containing SOCS box protein 2, SPRY domain (Homo sapiens, UniProt Q99619)	binding, affinity selection mass spectrometry	–	–	baseline: other proteins in batch	fold enrichment	0.749
CN(CC(=O)O)C(=N)N	NAA80	substrate, DTNB	–	2 mM, 30 min, 37 °C, together with: acetyl-CoA 500 µM	–	product formation	-1.05 µM
O=C(O)C1CCCNC1 (stereo not shown)	Sodium- and chloride-dependent taurine transporter (SLC6A6, Homo sapiens, UniProt P31641, Y138A)	binding, microscale thermophoresis	–	1 mM, room temperature, together with: 50 nM labelled protein	higher = more binding	normalised MST signal	0.882
COC(=O)[C@@H]1CCCN1Cc1cn(-c2ccc(C(=O)N3CCC(C#N)CC3)cc2)nn1	WD repeat-containing protein 91 WD40 domain, residues 392–747	binding, SPR single-concentration screen	–	45 µM	–	SPR response	1.1 RU and -3.9 RU
O=C(COP(=O)(O)O)[C@@H](O)[C@H](O)[C@H](O)COP(=O)(O)O	Germinal-center associated nuclear protein, 80 kDa isoform (MCM3AP, Homo sapiens, UniProt O60318)	thermal proteome profiling, measured: MCM3AP	HepG2 cell lysate	concentration not given, 57 over 37 °C	baseline: compound over control	thermal stability ratio	0.4 and 10 and 0.971
N=C(NC1CCN(c2ncnc3c2nc(-c2ccccc2Cl)n3-c2ccc(Cl)cc2)CC1)c1ccc(F)cc1	Cannabinoid receptor 1 (CNR1, Homo sapiens, UniProt P21554)	antagonist, FLIPR calcium mobilisation	CHO-K1 expressing CNR1 and Gαq16	together with: CP55940	–	Ke	170 nM
OC[C@H]1OC(O)[C@H](O)[C@@H](O)[C@@H]1O (stereo partly shown)	Hexokinase-3 (HK3, Homo sapiens, UniProt P52790)	enzyme activity, coupled G6PDH	–	partial substrate inhibition fit, together with: ATP 20 mM	–	kcat	54 ± 22 s⁻¹
COC1=C(OC)C(=O)C(CC=C(C)C)=C(C)C1=O	ancestral FSP1	oxidoreductase activity, substrate	–	together with: co-substrate 100 µM fixed	–	kcat	9.81 ± 0.33 s⁻¹
CC[N+](CC)(CC)CC	Genome polyprotein NS3 helicase domain	–	–	100 µM	–	inhibition	14%
O=c1nc(SCc2cc(F)cc(C(F)(F)F)c2)nc(SCc2ccc3sccc3c2)[nH]1	DNA topoisomerase 2-alpha (TOP2A, Homo sapiens, UniProt P11388)	ATPase activity	–	15.6 µM, together with: ATP 0.025 mM	–	ATP hydrolysis rate	0.259 µM/min and 0.529 µM/min
[O-][S+]1CCCCS1 (stereo not shown)	Superoxide dismutase [Cu-Zn] (SOD1, Homo sapiens, UniProt P00441, G94A)	LC-MS	human whole blood	5 µM, 1 h, 37 °C	–	SOD1 monomer fraction	99.5%
CN1C(=O)C(c2c(-c3ccc(Cl)cc3)[nH]c3c2c(=O)[nH]c(=O)n3C)c2ccccc21 (stereo not shown)	WD repeat-containing protein 91 (Homo sapiens, UniProt A4D1P6)	binding, SPR steady state	–	7.5 µM	–	SPR response	28.5 RU
Oc1ccc(/C=C/c2cc(O)cc(O)c2)cc1	O-methyltransferase (Sorghum bicolor, UniProt A0A1B6PFV1)	ITC two-site model	–	endothermic site, together with: sinefungin	–	cooperativity factor	2.9
O=S(=O)(c1cccc(C(F)(F)F)c1)N1CCc2ccc(OCc3c(F)cncc3Cl)cc21	Nuclear receptor ROR-gamma (RORC, Homo sapiens, UniProt P51449)	reporter gene, agonist, GAL4 luciferase reporter	–	together with: ursolic acid 2 µM	baseline: DMSO	maximum fold change	0.76 ± 0.12

Some of these lines once more:
Compound	target	test	test system	setting	how to read	quantity	result
[O-][S+]1CCCCS1 (stereo not shown)	Superoxide dismutase [Cu-Zn] (SOD1, Homo sapiens, UniProt P00441, G94A)	LC-MS	human whole blood	5 µM, 1 h, 37 °C	–	SOD1 monomer fraction	99.5%
N=C(NC1CCN(c2ncnc3c2nc(-c2ccccc2Cl)n3-c2ccc(Cl)cc2)CC1)c1ccc(F)cc1	Cannabinoid receptor 1 (CNR1, Homo sapiens, UniProt P21554)	antagonist, FLIPR calcium mobilisation	CHO-K1 expressing CNR1 and Gαq16	together with: CP55940	–	Ke	170 nM
